Measurements from different studies.
Protocols differ between the studies behind these lines.
UniProt Q13177, sequence (whole entry, looked up): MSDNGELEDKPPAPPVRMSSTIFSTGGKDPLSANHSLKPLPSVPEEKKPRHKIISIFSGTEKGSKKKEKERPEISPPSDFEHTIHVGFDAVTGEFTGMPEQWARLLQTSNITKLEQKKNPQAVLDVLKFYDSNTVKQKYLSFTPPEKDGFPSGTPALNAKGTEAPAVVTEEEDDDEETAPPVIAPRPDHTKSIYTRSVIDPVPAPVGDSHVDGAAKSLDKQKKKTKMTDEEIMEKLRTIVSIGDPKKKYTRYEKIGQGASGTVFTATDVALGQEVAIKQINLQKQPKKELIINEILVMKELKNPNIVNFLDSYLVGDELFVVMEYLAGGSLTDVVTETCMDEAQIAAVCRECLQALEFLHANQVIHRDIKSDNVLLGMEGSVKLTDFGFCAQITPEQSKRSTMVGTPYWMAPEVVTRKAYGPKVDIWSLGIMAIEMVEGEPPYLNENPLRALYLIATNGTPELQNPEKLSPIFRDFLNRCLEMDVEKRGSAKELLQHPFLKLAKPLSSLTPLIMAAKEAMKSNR
UniProt Q9HC98, sequence (whole entry, looked up): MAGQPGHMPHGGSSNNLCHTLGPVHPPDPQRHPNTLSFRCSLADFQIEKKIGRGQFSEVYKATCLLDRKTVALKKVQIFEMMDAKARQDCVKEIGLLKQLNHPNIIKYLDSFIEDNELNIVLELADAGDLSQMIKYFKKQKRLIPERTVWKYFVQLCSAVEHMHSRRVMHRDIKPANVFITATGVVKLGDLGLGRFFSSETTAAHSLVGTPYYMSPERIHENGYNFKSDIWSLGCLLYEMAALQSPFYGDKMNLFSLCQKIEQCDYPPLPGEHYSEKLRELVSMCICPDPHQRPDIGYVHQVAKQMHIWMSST
UniProt Q9C098, sequence (whole entry, looked up): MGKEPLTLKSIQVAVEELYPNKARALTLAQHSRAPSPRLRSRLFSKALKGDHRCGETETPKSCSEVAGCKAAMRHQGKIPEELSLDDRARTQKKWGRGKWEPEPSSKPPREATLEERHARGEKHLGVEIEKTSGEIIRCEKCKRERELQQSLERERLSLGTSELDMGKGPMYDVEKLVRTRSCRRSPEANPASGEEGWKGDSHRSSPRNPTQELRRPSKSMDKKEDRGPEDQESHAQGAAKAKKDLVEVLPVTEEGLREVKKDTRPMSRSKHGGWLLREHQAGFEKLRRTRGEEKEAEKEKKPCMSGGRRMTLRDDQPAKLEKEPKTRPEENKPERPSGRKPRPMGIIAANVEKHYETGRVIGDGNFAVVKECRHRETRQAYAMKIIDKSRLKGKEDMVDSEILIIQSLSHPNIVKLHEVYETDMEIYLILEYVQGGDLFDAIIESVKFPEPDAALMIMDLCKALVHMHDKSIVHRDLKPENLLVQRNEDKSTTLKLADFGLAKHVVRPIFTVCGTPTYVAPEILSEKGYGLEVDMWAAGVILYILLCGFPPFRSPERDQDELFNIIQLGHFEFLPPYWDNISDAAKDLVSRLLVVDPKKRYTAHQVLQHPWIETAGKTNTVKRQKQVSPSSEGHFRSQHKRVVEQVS
UniProt P00519, sequence (whole entry, unmodified, looked up): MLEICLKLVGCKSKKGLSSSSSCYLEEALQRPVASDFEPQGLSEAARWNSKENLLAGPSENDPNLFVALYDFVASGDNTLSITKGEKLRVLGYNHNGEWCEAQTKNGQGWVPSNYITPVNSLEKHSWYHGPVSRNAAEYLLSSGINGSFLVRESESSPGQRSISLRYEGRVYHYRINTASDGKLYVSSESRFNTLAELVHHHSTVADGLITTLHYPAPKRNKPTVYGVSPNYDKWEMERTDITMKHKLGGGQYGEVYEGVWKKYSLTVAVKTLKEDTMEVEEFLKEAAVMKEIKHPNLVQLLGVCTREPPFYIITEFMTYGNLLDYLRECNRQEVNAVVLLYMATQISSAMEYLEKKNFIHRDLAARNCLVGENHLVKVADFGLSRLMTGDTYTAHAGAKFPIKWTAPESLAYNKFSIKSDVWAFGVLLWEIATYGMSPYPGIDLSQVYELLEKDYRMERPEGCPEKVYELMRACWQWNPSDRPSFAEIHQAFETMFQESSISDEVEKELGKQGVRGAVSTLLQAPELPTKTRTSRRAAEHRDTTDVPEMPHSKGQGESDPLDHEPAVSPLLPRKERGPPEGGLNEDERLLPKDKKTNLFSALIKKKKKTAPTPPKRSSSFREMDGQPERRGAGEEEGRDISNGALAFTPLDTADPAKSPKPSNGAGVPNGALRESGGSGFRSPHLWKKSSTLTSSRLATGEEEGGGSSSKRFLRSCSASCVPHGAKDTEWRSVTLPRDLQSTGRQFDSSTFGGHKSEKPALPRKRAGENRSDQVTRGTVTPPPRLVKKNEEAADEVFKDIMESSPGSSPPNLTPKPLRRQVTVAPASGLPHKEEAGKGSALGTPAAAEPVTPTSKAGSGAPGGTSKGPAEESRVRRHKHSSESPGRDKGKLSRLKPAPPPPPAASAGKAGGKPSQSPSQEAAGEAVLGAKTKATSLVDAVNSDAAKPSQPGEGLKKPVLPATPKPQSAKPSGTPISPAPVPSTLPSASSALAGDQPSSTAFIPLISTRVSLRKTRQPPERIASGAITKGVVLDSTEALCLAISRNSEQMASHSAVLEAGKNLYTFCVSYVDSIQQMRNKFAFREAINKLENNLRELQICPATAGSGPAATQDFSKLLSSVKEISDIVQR
UniProt P10721, sequence (whole entry, unmodified, looked up): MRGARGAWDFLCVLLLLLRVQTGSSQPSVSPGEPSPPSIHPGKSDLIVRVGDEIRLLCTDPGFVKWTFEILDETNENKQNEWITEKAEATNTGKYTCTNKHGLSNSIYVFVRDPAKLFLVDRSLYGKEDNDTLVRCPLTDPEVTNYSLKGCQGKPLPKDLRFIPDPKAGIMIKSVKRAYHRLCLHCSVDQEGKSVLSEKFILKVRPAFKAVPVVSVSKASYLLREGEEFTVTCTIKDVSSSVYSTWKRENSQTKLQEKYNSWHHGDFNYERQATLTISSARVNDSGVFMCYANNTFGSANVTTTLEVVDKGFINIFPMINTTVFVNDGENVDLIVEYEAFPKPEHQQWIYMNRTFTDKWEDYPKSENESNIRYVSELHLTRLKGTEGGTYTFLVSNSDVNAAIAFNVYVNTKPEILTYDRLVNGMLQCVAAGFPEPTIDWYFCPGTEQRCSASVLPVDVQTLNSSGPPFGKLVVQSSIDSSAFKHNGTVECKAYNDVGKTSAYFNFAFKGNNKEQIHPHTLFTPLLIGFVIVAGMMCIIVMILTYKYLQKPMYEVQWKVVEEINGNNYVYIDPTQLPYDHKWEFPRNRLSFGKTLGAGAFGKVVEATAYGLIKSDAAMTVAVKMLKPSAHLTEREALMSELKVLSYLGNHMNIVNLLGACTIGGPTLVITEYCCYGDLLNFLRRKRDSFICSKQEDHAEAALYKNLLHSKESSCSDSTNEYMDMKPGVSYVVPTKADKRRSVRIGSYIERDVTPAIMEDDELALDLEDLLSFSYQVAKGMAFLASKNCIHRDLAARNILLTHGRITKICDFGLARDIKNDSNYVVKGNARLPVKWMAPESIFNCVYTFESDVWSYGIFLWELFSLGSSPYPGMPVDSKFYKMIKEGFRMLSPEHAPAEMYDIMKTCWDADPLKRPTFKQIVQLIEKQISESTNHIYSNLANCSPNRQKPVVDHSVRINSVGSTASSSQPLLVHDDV
UniProt P31751, sequence (whole entry, looked up): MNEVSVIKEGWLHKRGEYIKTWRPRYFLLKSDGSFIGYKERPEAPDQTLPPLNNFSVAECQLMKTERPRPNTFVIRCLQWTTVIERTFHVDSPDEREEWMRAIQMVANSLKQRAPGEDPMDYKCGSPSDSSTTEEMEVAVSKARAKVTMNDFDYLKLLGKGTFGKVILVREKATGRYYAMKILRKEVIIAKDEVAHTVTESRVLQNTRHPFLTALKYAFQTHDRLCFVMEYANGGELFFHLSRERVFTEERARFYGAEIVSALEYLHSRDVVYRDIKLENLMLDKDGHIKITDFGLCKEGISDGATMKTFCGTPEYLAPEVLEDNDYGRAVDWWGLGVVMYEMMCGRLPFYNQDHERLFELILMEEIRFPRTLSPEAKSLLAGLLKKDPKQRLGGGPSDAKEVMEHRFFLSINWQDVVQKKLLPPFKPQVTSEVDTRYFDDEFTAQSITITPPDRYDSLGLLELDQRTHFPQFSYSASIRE
UniProt P07711, sequence (whole entry, looked up): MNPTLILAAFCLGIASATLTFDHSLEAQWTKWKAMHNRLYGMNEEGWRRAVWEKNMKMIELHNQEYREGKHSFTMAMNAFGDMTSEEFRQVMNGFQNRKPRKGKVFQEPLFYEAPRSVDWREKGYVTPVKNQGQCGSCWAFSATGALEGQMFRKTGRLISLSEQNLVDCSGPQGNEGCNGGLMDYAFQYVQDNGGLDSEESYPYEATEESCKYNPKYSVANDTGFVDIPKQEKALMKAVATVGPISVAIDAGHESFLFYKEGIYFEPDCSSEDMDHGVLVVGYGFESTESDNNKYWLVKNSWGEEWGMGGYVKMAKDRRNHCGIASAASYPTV

COc1cc(O)cc(O)c1CCC(=O)c1ccc(O)cc1 — remaining activity (Procathepsin L (CTSL, Homo sapiens, UniProt P07711); enzyme activity, inhibitor; 100 µM): 91.7%
C=CC(=O)N1CCC(COCC(=O)N2CCN(c3nc(-c4cnc(N)nc4C(F)F)nc(N4CCOC[C@@H]4C)n3)CC2)CC1 — remaining binding (DCLK3 (Homo sapiens, UniProt Q9C098); binding, competition with immobilised ligand; 1 µM): 100%
CCCCC(=O)Nc1ccc(-c2ccc3ncn(CCC)c(=O)c3c2)cn1 — remaining binding (Tyrosine-protein kinase ABL1, phosphorylated (ABL1, Homo sapiens, UniProt P00519, T315I); binding, competition with immobilised ligand; 0.5 µM): 86%
CCCN(O)N=Nc1ccc(S(=O)(=O)Nc2onc(C)c2C)cc1 — inhibition (ABTS scavenging; 240 µg/mL): 52.9%
Nc1ccn([C@@H]2O[C@H](CO)[C@@H](O)C2(F)F)c(=O)n1 — viability (MCF7; cell growth or viability, MTT; 0.625 µg/mL, 24 h): 80.8%
Cc1cccc(N(O)N=Nc2ccc(S(=O)(=O)Nc3onc(C)c3C)cc2)c1 — inhibition (ABTS scavenging; 300 µg/mL): 76.8%
COc1cc(-c2cncc3c2CN(C)Cc2cc(N4CCNCC4)ccc2-3)cc(OC)c1OC — remaining activity (ROCK2 (Homo sapiens, UniProt O75116); enzyme activity, inhibitor; 1 µM): 104%
CNc1ncc2c(/C=C/C(=O)N3CCC(OC)CC3)nn(Cc3cccc(C(F)(F)F)c3)c2n1 — remaining activity (PAK2 (Homo sapiens, UniProt Q13177); enzyme activity, inhibitor, radiometric; 1 µM): 97%
Nc1ncnc2occ(-c3ccc(NC(=O)Nc4cc(C(F)(F)F)ccc4F)cc3)c12 — remaining signal (KIT (Homo sapiens, UniProt P10721, L576P); cell-free assay, inhibitor; 20 µM): 0%
CC(=NNC(=O)c1ccncc1)c1ccc(Nc2nnc(-c3ccc(Cl)cc3)c3ccccc23)cc1 — viability (MCF7; cell growth or viability, MTT; 5 µM, 24 h): 6.68%
Cc1cc([C@@H](C)Nc2ccccc2C(=O)O)c2nc(N3CCC(F)(F)CC3)c(C#N)c(=O)n2c1 — remaining binding (AKT2 (Homo sapiens, UniProt P31751); binding, competition with immobilised ligand; 10 µM): 100%
C1=C/COCc2cc(ccc2OCCN2CCCC2)Nc2nccc(n2)-c2cccc(c2)COC/1 — remaining binding (NEK6 (Homo sapiens, UniProt Q9HC98); binding; 0.1 µM): 61%

Excerpt of the above:
C1=C/COCc2cc(ccc2OCCN2CCCC2)Nc2nccc(n2)-c2cccc(c2)COC/1 — remaining binding (NEK6 (Homo sapiens, UniProt Q9HC98); binding; 0.1 µM): 61%
